Experimental data pooled from the literature.
Compare with care: the assays were run in different laboratories.
UniProt O60674, sequence (whole entry, looked up): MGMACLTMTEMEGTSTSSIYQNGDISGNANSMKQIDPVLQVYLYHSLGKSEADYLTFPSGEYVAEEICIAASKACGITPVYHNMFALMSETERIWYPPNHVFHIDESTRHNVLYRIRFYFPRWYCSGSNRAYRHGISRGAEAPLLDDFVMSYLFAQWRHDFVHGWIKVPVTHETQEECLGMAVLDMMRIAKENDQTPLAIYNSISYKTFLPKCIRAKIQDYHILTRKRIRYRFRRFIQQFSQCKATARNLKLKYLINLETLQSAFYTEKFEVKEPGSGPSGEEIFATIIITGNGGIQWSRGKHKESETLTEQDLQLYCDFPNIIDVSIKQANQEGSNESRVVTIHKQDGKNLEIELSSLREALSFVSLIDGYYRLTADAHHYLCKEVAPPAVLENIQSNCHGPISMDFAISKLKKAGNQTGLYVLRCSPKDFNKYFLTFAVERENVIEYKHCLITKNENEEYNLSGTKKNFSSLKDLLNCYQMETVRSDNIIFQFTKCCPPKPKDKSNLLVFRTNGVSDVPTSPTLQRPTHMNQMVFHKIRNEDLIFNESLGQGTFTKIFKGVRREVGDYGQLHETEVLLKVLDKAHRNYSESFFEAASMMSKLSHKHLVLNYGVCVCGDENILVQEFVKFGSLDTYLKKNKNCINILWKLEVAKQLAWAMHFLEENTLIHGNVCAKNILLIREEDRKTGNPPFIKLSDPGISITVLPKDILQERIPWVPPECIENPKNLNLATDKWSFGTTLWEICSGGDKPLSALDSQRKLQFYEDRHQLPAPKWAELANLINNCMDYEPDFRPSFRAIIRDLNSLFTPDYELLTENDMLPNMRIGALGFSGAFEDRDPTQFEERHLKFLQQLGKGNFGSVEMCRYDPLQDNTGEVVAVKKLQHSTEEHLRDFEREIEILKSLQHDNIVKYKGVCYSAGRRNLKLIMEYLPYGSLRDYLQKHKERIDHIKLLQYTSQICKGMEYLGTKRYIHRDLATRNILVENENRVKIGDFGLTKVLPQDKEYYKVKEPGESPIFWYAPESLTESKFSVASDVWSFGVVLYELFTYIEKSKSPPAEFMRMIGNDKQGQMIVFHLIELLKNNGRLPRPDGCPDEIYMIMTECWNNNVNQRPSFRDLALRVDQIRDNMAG
UniProt P34972, sequence (whole entry, looked up): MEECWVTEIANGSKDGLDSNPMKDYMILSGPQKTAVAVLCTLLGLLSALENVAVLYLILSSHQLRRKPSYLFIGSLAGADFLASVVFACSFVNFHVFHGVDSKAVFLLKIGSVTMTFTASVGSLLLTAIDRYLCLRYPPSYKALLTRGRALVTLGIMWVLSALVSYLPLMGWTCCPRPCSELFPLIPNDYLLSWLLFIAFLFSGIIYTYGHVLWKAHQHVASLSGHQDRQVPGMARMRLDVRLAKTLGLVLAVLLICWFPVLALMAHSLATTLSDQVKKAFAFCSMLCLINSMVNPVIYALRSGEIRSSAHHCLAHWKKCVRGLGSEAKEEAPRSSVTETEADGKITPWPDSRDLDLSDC
UniProt Q9UBE8, sequence (whole entry, looked up): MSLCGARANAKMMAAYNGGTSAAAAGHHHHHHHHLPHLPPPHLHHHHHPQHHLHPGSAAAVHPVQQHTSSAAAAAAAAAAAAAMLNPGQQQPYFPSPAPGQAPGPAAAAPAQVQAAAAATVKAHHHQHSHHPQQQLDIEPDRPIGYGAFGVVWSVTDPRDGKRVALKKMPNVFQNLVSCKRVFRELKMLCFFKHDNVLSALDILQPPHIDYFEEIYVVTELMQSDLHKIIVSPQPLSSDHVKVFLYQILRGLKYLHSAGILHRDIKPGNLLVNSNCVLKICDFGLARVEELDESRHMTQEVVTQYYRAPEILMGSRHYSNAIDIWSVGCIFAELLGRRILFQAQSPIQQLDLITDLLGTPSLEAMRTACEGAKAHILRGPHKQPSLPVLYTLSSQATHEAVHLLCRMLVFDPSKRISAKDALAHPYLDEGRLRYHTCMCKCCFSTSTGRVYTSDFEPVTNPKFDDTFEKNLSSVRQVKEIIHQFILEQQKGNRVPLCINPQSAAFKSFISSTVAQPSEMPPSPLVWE
UniProt P11150, sequence (whole entry, looked up): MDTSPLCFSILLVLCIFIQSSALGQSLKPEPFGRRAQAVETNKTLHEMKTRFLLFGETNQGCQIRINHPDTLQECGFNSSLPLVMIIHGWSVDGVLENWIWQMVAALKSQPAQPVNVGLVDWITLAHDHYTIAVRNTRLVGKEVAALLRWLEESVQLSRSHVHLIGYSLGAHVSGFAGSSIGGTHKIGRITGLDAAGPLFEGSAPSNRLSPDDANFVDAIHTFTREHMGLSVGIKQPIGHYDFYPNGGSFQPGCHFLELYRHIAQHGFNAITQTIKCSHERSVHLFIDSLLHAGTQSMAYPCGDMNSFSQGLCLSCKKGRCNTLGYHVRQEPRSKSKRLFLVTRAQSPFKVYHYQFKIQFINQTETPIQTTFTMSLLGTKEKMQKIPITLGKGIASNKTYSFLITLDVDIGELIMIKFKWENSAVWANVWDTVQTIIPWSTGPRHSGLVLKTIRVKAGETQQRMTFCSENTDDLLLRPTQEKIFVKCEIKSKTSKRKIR
UniProt P35410, sequence (whole entry, looked up): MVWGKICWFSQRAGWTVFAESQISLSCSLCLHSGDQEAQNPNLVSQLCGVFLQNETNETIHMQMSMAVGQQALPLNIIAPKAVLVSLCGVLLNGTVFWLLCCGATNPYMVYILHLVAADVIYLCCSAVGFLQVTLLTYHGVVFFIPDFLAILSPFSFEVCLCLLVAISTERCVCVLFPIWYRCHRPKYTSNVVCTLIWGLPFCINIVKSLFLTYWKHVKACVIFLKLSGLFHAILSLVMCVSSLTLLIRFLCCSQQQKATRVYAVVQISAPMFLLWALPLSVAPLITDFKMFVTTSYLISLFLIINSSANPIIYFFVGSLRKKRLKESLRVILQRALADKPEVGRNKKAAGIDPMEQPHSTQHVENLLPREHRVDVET
UniProt P23458, sequence (whole entry, looked up): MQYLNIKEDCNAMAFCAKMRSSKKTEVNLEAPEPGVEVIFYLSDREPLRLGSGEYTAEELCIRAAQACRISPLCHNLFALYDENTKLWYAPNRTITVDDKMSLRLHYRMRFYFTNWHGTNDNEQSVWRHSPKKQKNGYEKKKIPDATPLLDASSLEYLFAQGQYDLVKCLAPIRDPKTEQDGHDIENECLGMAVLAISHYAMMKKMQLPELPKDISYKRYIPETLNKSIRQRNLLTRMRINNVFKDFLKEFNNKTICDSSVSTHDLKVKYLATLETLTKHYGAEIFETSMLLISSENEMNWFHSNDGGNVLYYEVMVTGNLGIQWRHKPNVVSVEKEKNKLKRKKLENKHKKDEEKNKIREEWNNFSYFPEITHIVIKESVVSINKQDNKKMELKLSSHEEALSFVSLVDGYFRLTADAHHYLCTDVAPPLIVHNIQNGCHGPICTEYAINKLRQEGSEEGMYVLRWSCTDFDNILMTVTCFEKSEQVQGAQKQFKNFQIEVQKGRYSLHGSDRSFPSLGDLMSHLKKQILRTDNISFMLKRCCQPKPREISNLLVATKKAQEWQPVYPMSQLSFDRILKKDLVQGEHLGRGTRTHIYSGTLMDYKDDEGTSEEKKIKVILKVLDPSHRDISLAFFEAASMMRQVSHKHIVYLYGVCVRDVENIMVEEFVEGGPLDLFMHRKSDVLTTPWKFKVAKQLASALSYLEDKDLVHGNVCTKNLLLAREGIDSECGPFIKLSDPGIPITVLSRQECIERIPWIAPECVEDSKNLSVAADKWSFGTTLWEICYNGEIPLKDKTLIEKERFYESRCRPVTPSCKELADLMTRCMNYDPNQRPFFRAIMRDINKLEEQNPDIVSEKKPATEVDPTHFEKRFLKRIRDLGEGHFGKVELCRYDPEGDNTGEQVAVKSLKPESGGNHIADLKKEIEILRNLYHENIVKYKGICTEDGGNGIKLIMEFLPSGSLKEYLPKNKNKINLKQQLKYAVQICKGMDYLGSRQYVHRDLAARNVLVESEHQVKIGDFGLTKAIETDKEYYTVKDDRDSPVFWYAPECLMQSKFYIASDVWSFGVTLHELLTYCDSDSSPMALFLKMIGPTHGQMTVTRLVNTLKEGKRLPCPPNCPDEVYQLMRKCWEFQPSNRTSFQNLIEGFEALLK

SMILES | target or system | assay | test system | setting | scale | measurement | result
CC[C@H](C)[C@H](NC(=O)[C@H](Cc1ccccc1)NC(=O)[C@H](CCC(=O)O)NC(=O)[C@H](CCCNC(=N)N)NC(=O)[C@H](C)NC(=O)[C@H](C)NC(=O)[C@H](CCC(N)=O)NC(=O)[C@H](CCC(=O)O)NC(=O)[C@H](CCC(=O)O)NC(=O)[C@H](CC(C)C)NC(=O)[C@H](Cc1ccc(O)cc1)NC(=O)[C@H](CO)NC(=O)[C@H](CO)NC(=O)[C@@H](NC(=O)[C@H](CC(=O)O)NC(=O)[C@H](CO)NC(=O)[C@@H](NC(=O)[C@H](Cc1ccccc1)NC(=O)[C@@H](NC(=O)CNC(=O)[C@H](CCC(=O)O)NC(=O)[C@H](C)NC(=O)CCc1c[nH]cn1)[C@@H](C)O)[C@@H](C)O)C(C)C)C(=O)N[C@@H](C)C(=O)N[C@@H](Cc1c[nH]c2ccccc12)C(=O)N[C@@H](CC(C)C)C(=O)N[C@H](C(=O)N[C@@H](CCCNC(=N)N)C(=O)NCC(=O)N[C@@H](CCCNC(=N)N)C(=O)N[C@@H](CCCCNC(=O)COCCOCCNC(=O)COCCOCCNC(=O)CC[C@H](NC(=O)CCCCCCCCCCCCCCCCC(=O)O)C(=O)O)C(=O)NCC(=O)NCC(=O)N[C@@H](CO)C(=O)N[C@@H](CCCCNc1c(NCCCCCN(O)C(=O)CCC(=O)NCCCCCN(O)C(=O)CCC(=O)NCCCCCN(O)C(C)=O)c(=O)c1=O)C(=O)O)C(C)C [zirconium-89 labelled] |  | gamma counting | rat, skin at injection site | intravenous, 3 nmol/kg, 168 h |  | tissue uptake | 0.1 %ID/g
O=C(c1ccc(Cl)cc1)N1CCN2C(=O)N(OC(=O)N3CCOc4ccccc43)C(=O)C2C1 (stereo not drawn) | Hepatic triacylglycerol lipase (Homo sapiens, UniProt P11150) | enzyme activity, inhibitor, MS-based ABPP | SW-620 conditioned medium | 10 µM, 1 h, 37 °C | baseline: compound over DMSO, lower = stronger inhibition | median ratio | 0.95
CN1CC[C@@H](c2c(O)cc(O)c3c(=O)cc(-c4ccc(C(F)(F)F)cc4Cl)oc23)[C@@H]1CO |  | item: Hypertension | AML | oral, 200 mg, intermittent dosing |  | patients with adverse event | 10%
C[C@@H](O)[C@@H](CO)NC(=O)[C@@H](CCCNC(=N)N)NC(=O)[C@@H]1CCCN1C(=O)[C@@H]1CSSC[C@H](NC(=O)[C@H](Cc2ccccc2)NC(=O)CN2CCN(CC(=O)O)CCN(CC(=O)O)CCN(CC(=O)O)CC2)C(=O)N[C@@H](Cc2ccc(O)cc2)C(=O)N[C@@H](Cc2ccccc2)C(=O)N[C@@H](CCC(N)=O)C(=O)N[C@@H](CC(N)=O)C(=O)N1 [gallium-68 labelled] |  |  | healthy Wistar rat, liver | intravenous, 8 MBq, 120 min, individual animals |  | tissue uptake | 0.06 %ID/g
OC[C@H]1O[C@@H](n2ccc3c(SCc4ccc(Cl)cc4Cl)ncnc32)[C@H](O)[C@@H]1O | Toxoplasma gondii | [3H]uracil incorporation | human fibroblasts, adenosine kinase deficient | 25 µM |  | survival | 100%
Oc1ccc2c3c1O[C@H]1[C@@H](O)CC[C@@]4(O)[C@@H](C2)N(CC2CCC2)CC[C@]314 | Mas-related G-protein coupled receptor MRG (MAS1L, Homo sapiens, UniProt P35410) | β-arrestin recruitment, TANGO luminescence, item: MAS1L |  | concentration not given | baseline: basal luminescence | log2 fold change | 0.175
OC[C@H]1O[C@@H](n2ccc3c(SCc4ccc(F)cc4F)ncnc32)[C@H](O)[C@@H]1O | Toxoplasma gondii | [3H]uracil incorporation | human fibroblasts, adenosine kinase deficient | 5 µM |  | survival | 100%
COc1cc(Nc2ncc(F)c(Nc3ccc4c(n3)NC(=O)C(C)(C)O4)n2)cc(OC)c1OC | RXRA (Homo sapiens, UniProt P19793) |  |  |  |  | IC50 | > 10 µM
[2H]c1c([2H])c([C@]2([2H])CCCN2C(=O)C(C)(C)Oc2ccc3cn[nH]c3c2)c([2H])c([2H])c1C([2H])([2H])[2H] | Tyrosine-protein kinase JAK1, JH2 pseudokinase domain (JAK1, Homo sapiens, UniProt P23458) | KINOMEscan |  | 1 µM | baseline: DMSO control | remaining binding | 86%
CC[C@H](C)[C@H](NC(=O)CNC(=O)[C@@H](N)CCCCN)C(=O)N[C@@H](CC(C)C)C(=O)N[C@@H](CCCCN)C(=O)N[C@@H](CCCNC(=N)N)C(=O)N[C@@H](CCC(=O)O)C(=O)N[C@@H](CCCCN)C(=O)N[C@@H](CCCNC(=N)N)C(=O)N[C@@H](CC(C)C)C(=O)N[C@@H](CCCNC(=N)N)C(=O)N[C@@H](CCCNC(=N)N)C(=O)N[C@@H](CCCCN)C(=O)N[C@@H](CC(N)=O)C(=O)N[C@H](C(=O)N[C@@H](Cc1c[nH]cn1)C(=O)N[C@@H](Cc1c[nH]c2ccccc12)C(=O)N1CCC[C@H]1C(=O)N[C@@H](CCC(=O)O)C(=O)N[C@@H](CCC(=O)O)C(=O)NCC(=O)N[C@@H](CCCCN)C(=O)N[C@@H](CC(C)C)C(=O)N[C@@H](CCCNC(=N)N)C(=O)N[C@@H](CCC(=O)O)C(=O)N[C@@H](Cc1ccccc1)C(=O)N[C@@H](Cc1ccccc1)C(=O)N[C@@H](Cc1ccccc1)C(=O)N[C@@H](Cc1ccccc1)C(=O)N[C@@H](CCC(=O)O)C(=O)N[C@@H](CC(C)C)C(=O)N[C@@H](CC(=O)O)C(=O)N[C@@H](CCC(=O)O)C(=O)N[C@@H](C)C(=O)N[C@@H](CCC(=O)O)C(=O)N[C@@H](CCCNC(=N)N)C(=O)N[C@H](C(=O)N[C@@H](CC(N)=O)C(=O)N[C@H](C(=O)O)C(C)C)C(C)C)C(C)C | HeLa and HEK-293T cells | phosphatase bead binding, competitive inhibitor, PIB pulldown iBAQ LC-MS/MS, item: PPP4C |  | concentration not given | baseline: untreated control | log2 fold change | 0.58
CC[C@H](C)[C@@H]1NC(=O)[C@@H]2CCCN2C(=O)[C@H](CC(C)C)NC(=O)[C@H](CC(C)C)NC(=O)CNC(=O)[C@@H](NC(=O)[C@@H](NC(=O)[C@H](CC(=O)O)NC(=O)CNC(=O)[C@@H](NC(=O)[C@H](C)NC(=O)CNC(=O)[C@H](CCCCN)NC(=O)[C@H](CC(C)C)NC(=O)[C@H](CC(C)C)NC(=O)[C@H](CCCCN)NC(=O)CNC(=O)[C@@H](NC(=O)[C@@H](N)CC(C)C)C(C)C)C(C)C)C(C)C)CSSC[C@@H](C(=O)O)NC1=O |  | RNA-seq, item: Hcn4 | mouse, traumatic brain injury model, frontal cortex and hippocampus | dose not given | baseline: TBI alone | log2 fold change | -1.28
CN1CC[C@]2(C)c3cc(OC(=O)Nc4ccccc4)ccc3N(C)[C@H]12 | human nicotinic α2β4 receptor | radioligand binding |  | 10 µM, added: [3H]epibatidine |  | inhibition | 0%
COc1ccc(N2C(=O)N(c3c(C)cccc3Cl)Cc3cnc(Nc4ccc(C5CCN(C)CC5)cc4OC)nc32)nc1 | JAK2 (Homo sapiens, UniProt O60674) | kinase activity |  | 0.5 µM |  | inhibition | 5.36%
CCOc1ccc(NC(=O)c2cnn(-c3ccc(C)c(Cl)c3)c2C2CCNCC2)cc1 | Vero-E6 | CellTiter-Glo ATP |  | 72 h, first round 5-point | baseline: DMSO 0%, hyamine -100%, more negative, more toxic | maximum response | -8.17%
CC[C@H](C)[C@H](NC(=O)CNC(=O)[C@@H](N)CCCCN)C(=O)N[C@@H](CC(C)C)C(=O)N[C@@H](CCCCN)C(=O)N[C@@H](CCCNC(=N)N)C(=O)N[C@@H](CCC(=O)O)C(=O)N[C@@H](CCCCN)C(=O)N[C@@H](CCCNC(=N)N)C(=O)N[C@@H](CC(C)C)C(=O)N[C@@H](CCCNC(=N)N)C(=O)N[C@@H](CCCNC(=N)N)C(=O)N[C@@H](CCCCN)C(=O)N[C@@H](CC(N)=O)C(=O)N[C@H](C(=O)N[C@@H](Cc1c[nH]cn1)C(=O)N[C@@H](Cc1c[nH]c2ccccc12)C(=O)N1CCC[C@H]1C(=O)N[C@@H](CCC(=O)O)C(=O)N[C@@H](CCC(=O)O)C(=O)NCC(=O)N[C@@H](CCCCN)C(=O)N[C@@H](CC(C)C)C(=O)N[C@@H](CCCNC(=N)N)C(=O)N[C@@H](CCC(=O)O)C(=O)N[C@@H](Cc1ccc(O)cc1)C(=O)N[C@@H](Cc1ccccc1)C(=O)N[C@@H](Cc1ccc(O)cc1)C(=O)N[C@@H](Cc1ccccc1)C(=O)N[C@@H](CCC(=O)O)C(=O)N[C@@H](CC(C)C)C(=O)N[C@@H](CC(=O)O)C(=O)N[C@@H](CCC(=O)O)C(=O)N[C@@H](C)C(=O)N[C@@H](CCC(=O)O)C(=O)N[C@@H](CCCNC(=N)N)C(=O)N[C@H](C(=O)N[C@@H](CC(N)=O)C(=O)N[C@H](C(=O)O)C(C)C)C(C)C)C(C)C | HeLa and HEK-293T cells | phosphatase bead binding, competitive inhibitor, PIB pulldown iBAQ LC-MS/MS, item: STRN3 |  | concentration not given | baseline: untreated control | log2 fold change | -0.19
COc1cc2c(Oc3ccc4[nH]c(C)cc4c3F)ccnc2cc1OCC1(N)CC1 |  |  | paediatric refractory sarcoma patients | 12 mg |  | gingival bleeding incidence | 0%
Cc1ccc(CSc2ncnc3c2ccn3[C@@H]2O[C@H](CO)[C@@H](O)[C@H]2O)cc1 | Toxoplasma gondii | [3H]uracil incorporation | human fibroblasts, adenosine kinase deficient | 50 µM |  | survival | 100%
COC(=O)[C@@H](NC(=O)c1nn(Cc2ccc(F)cc2)c2ccccc12)C(C)(C)C | CNR2 (Homo sapiens, UniProt P34972) | GTPase |  |  | baseline: compound | Gi GTP turnover median | 100%
CN[C@]1(c2ccccc2Cl)CCCCC1=O | muscle nicotinic acetylcholine receptor | radioligand binding, antagonist, radioligand displacement |  | 30 µM |  | inhibition | -16%
OC[C@H]1O[C@@H](n2ccc3c(SCc4ccc(Cl)c(Cl)c4)ncnc32)[C@H](O)[C@@H]1O | Toxoplasma gondii | [3H]uracil incorporation | human fibroblasts, adenosine kinase deficient | 10 µM |  | survival | 100%
C[C@H]1CN(c2n[nH]c3nc(N[C@H]4CC[C@H](NS(=O)(=O)CCC(F)(F)F)CC4)ncc23)CCO1 | NLK (Homo sapiens, UniProt Q9UBE8) | Kinobeads competition | HEK293, K562, placenta lysate | 0.16 µM, unit not given | baseline: vehicle | remaining binding | 0.75
